Experimental data from different studies.
Every numbered part comes from another study and shows a few of its results, in no order. Positions count from the first letter of the parent shown.
Chain of UniProt Q16832 (whole entry, looked up): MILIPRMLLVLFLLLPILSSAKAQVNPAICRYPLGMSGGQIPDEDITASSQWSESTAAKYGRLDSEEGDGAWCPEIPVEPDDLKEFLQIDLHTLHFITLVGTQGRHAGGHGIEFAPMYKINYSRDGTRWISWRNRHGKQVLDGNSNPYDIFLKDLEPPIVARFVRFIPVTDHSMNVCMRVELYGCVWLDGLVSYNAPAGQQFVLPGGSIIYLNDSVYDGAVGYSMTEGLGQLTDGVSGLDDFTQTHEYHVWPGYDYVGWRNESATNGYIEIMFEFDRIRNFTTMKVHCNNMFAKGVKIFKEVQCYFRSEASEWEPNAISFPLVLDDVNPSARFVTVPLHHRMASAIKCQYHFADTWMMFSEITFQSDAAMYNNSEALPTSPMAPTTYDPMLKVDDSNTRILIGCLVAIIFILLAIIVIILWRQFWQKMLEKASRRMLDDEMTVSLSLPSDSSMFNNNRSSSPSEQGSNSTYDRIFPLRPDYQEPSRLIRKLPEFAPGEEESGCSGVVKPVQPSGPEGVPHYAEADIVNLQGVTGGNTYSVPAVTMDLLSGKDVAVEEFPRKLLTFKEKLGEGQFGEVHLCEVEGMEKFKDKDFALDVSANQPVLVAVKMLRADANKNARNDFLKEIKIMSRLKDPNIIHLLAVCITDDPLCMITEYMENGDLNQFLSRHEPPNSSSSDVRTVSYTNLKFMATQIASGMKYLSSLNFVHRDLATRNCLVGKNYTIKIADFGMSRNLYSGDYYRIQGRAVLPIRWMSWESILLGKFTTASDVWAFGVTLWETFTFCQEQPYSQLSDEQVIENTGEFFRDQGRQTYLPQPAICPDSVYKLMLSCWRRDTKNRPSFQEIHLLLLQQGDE

Study 1
Target: CEP164, C-terminal peptide (human)
Technique: DHFR complementation, deep sequencing
Sample: yeast
Notes: single substitutions, model-inferred values
Reference: wild type
Direction: higher = weaker binding
Starting sequence: PDZK1, PDZ domain 2 (human); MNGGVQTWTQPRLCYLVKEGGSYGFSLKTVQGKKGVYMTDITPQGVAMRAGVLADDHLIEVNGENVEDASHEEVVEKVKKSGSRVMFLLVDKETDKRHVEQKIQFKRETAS; partner HNRVKVYRF
`W8V` — result for “binding free energy change”: -0.194 kcal/mol.
`K79N`: “binding free energy change” 0.554 kcal/mol.
`V99P`: “binding free energy change” -0.148 kcal/mol.
`V75K`: “binding free energy change” 2.16 kcal/mol.
Under “binding free energy change”, `C14Y` is recorded as 0.765 kcal/mol.
`K79A`: “binding free energy change” 0.626 kcal/mol.
For `D95E`, “binding free energy change” read -0.164 kcal/mol.
`G3W` — result for “binding free energy change”: 0.053 kcal/mol.

Study 2
Target: Prothrombin, mature alpha-thrombin (F2, Homo sapiens, UniProt P00734)
Technique: aptamer microarray, sandwich
Molecule type: DNA with 2'F-ANA
Sample: in vitro
Tested at: 200 nM
Notes: whole 15-mer aptamer, many near background
With: Cy3 exosite-II aptamer, 400 nM
Direction: higher = stronger binding
Strand: GGTTGGTGTGGTTGG
For `2'F-ANA at 1 3 4 5 6 8 9 10 11 12`, “mean fluorescence intensity” read 50.2 a.u.
Under “mean fluorescence intensity”, `2'F-ANA at 2 4 5 6 7 12 14` is recorded as 49.4 a.u.
`2'F-ANA at 1 6 8 12 13` — result for “mean fluorescence intensity”: 317 a.u.
`2'F-ANA at 1 3 5 6 8 11 12`: “mean fluorescence intensity” 110 a.u.
`2'F-ANA at 3 7 8 11 13 15` — result for “mean fluorescence intensity”: 1080 a.u.
For `2'F-ANA at 1 2 3 4 5 6 7 11`, “mean fluorescence intensity” read 54.6 a.u.
For `2'F-ANA at 3 4 5 6 11 13 14 15`, “mean fluorescence intensity” read 48.1 a.u.
For `2'F-ANA at 1 4 6 7 8 11 14 15`, “mean fluorescence intensity” read 58.4 a.u.

Study 3
Target: RING finger protein unkempt homolog, zinc fingers 1-6, SBP tag (UNK, Homo sapiens, UniProt Q9C0B0, residues 30-357)
Chain of UniProt Q9C0B0 (30-357, looked up): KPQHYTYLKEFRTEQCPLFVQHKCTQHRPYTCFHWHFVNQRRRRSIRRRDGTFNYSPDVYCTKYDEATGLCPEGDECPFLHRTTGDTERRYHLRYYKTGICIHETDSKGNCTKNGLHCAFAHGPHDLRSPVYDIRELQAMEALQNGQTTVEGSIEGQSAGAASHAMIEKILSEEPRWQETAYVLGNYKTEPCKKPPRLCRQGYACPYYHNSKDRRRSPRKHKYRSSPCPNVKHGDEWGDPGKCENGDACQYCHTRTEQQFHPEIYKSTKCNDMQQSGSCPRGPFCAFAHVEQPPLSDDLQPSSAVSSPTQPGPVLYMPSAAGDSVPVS
Technique: RNA Bind-n-Seq
Molecule type: RNA
Sample: in vitro
Tested at: 100 nM
Notes: RNA with constant flanks, vertebrate orthologous sites, ends assumed
Reference: input RNA pool
Direction: higher = stronger binding
All sequences stand within: GGGAGUUCUACAGUCCGACGAUC … CAACAGAGGAUUGAGCAUCA
`UGCCCCCCACCCCAUGGGAGGGAGUGGGGGAACUCAGGAUGACCCUCAACUGUUCCAAUCCAGUAUUUUUUUUUCUUUUUUUAAAUUACUGUAUUUAUUAUGACGAUGGUGACUCCCCGG` has a bound/input enrichment of 0.893 ratio.
The bound/input enrichment of `AAGAUGGUGGUUGUACAUUAUUUCAUUUAGAAAAUAUAAAAAUUCAUUUUGUUUUGAAGCUAGGUGUUAAACUGGAGUAGCUACUAUACCCCCAGAGAAUGGGGCAGUUGUGCCCUUCCC` is reported as 1.22 ratio.
`CUGUUGUUAAGCACUGUGUUCCAGACCGUGUCUGACUUUAGUGUAACCUAGGAGAGUUUAUAGUUUUAUUUUAAUGAAACCCUCAUUGGCACGGAGCAGUGGGAAAAAGCAGUGUCUCUC` has a bound/input enrichment of 0.958 ratio.
For `CUCCCUAGCACCACAAAAAUAGAACUUUUUAAAAUUGUGUCGCCACCACUUCUAAAAAUUUAGCAAUAUUCGAAUAAAACACUAAUGAAGUAAAUCUUGCUUAUGGUGUUGCAAACCAGA`, the bound/input enrichment was 4.39 ratio.
`GUUGUGACCCAUUUAAUAUACACAAAAAACUAGCCAAAAAGAAUUUGCAUGUGAUUGACUUAGAUGAUGCCACCUUCCUGAGUGCAAAAUUUGGAAGGCAGCUGGUACCUGGUUGGAAGC` has a bound/input enrichment of 0.839 ratio.
`AAUAAUGAAUAGUAUUAAAGAAACAUUCUCGUCUUCCUUUACCUUUAAUCCCUUAAUACCUAGUCUACUUUUUAAAUUUUCAGACUUCACUGCUUUUUGAAUUCAUAAUUCUAAUUUUCA` has a bound/input enrichment of 2.11 ratio.
With `GUCAUUUUUUUUUUCACAUUUCCUGUAAAUAGUGGAUAAUCGUUUUUUUAUUUUAUUUUUAAGUGCUGUGUUAACAAUGUGGAUAGACCAUAAAUGUACUUGCUGAAUUCAUACAUUUUU` the bound/input enrichment was 1.81 ratio.
`AUUUAAAAUGUAGUUAGUUAUAUUUAAUGACCUCAUUCCUAAGUUCCUUUUUCGUUAAUGUAGCUUUCAUUUCUGUUAUUGCUGUUUGAGUAAUAUGAUUAAAUAGAAGGUUUGUGCCAG` has a bound/input enrichment of 0.426 ratio.

Further values, each from its own experiment
For `O=C1NC(=O)C(c2c[nH]c3ccccc23)=C1c1c[nH]c2ccccc12`, the remaining activity was 101% (Discoidin domain-containing receptor 2 (DDR2, Homo sapiens, UniProt Q16832); enzyme activity, inhibitor; 0.5 µM; reference: control).

Repeated from above (further values, each from its own experiment):
For `O=C1NC(=O)C(c2c[nH]c3ccccc23)=C1c1c[nH]c2ccccc12`, the remaining activity was 101% (Discoidin domain-containing receptor 2 (DDR2, Homo sapiens, UniProt Q16832); enzyme activity, inhibitor; 0.5 µM; reference: control).
